Measurements collected from several papers.
Parts stem from different laboratories: compare values within a part only. Changes are numbered by the printed parent chain.

Sample 1 — technique: RNA Bind-n-Seq; form: RNA; sample: in vitro; tested at: 365 nM; relative to: no-protein control; reading: higher = stronger binding
Target: RNA binding protein fox-1 homolog 2, RRM domain, GST-SBP tag (RBFOX2, Homo sapiens, UniProt O43251-10, residues 100-194)
Notes: natural RNA segment, single round, ends assumed
Constant ends, left off below: GGGAGUUCUACAGUCCGACGAUC … UGGAAUUCUCGGGUGCCAA
Target sequence (chain): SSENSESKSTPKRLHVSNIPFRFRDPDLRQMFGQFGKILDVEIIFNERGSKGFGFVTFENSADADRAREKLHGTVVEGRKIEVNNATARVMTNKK
| Strand | RBNS enrichment (R) |
| --- | --- |
| AAGAGGUGCCCAGGCCUGAGGUACUCACAUAAAUGCUUUGUUUUGCUGGUGAUUUAACCAGUGCUUGGAAAAAUCUUGCUUGGCUAUUUCUGCAUCAUUUCUUAAGGCUG | 3.91 |
| GAGCCCUUUAAGAUGAUAAAGGACCCAAUGCAGGUAAUCCUGUUUUUGGACUCACGUAAUGUAGAAUGCAAAGUUUAGUGAUUAUUUAAUCUGGGCCUAAGCUAGUGAGA | 1.05 |
| GAAAAAAAACAAAAGUCUUUGUAAUUUUGCUUAAAUUUGCCAGACACAGAUUUAGAAAUACAUUCUCACUGUCCAAAAUCAGCUUAAACACUGGCUCUGGCGAUGAGUCA | 0.463 |
| GAAUUGUACAUAGCUGGAUGUAAAUAGGAGCGUGUCUGUCAGGUUUUAUUCUUGUUUUGCCUUUUGGGUCUUAUUUCCAGGUCAGGAGAUGGCUAAUCCACACUAGCAAG | 0.652 |
| AUAAGUCUUAGAUGUUUGAGUGAAGCACUGCUACAAUAGUAAUAGUUUGGCUAGAUCUUAAAGCUGUUUUGGUAAUUAAUGUCUUGUGACAUUUAAUAAUGACUUAGCAA | 0.332 |
| UACCCACUUUGGAACCCACUUUCCCCAGUCUCUAGGUCCUGAUGCCUAGUGUGAUGAAGACCUUGCCCUCUUCAUUUCCCUCAACUCCCUACUCCUUUUAUGUAUGGAUG | 0.357 |
| AAGCCUAUUGCCUUUUCUCCUUUUACUUCAGCACCCAGCUACUGACUGGUUUCCAUAUCCCCACCCUACACCAGGGUUCCAUUUGGAAGUAUACCUUGUUUAUCAGUCAG | 0.202 |
| CCGCUGGUCCCUGCUAUCCGAAGUGCCAUGCUUCCAGGAAGGACCAUGGGAAUGGUUUUGAGGACCUGGAUGAGGAAGAAGGCGUGGCAUCCUCCUGGCUUCUUACAGAA | 0.302 |
| CCCCACACAAACCUGUCCCCUCGGUUGUGUUGAAGUCCCCUGGACAGUGGGCAGGGGUGGCAGAGGACACGAGCAGCCACUGCCCGUACCCCCUCUCCUCUCUGUAAGCC | 0.323 |
| CUGGAGGCAGCAAUUCCUCAUCCAGCUCAGGGACUCCUGACAGCCAAGGGGACAGCAAGAGGACCCAGAGCAGGGAAAGGGGUCGGGGAGUCACACAACCAAAGGUAGAC | 0.581 |
| GACUCACACUUCUGACCCUGCCUGUCUUUUUGGGGUUUUUUUGAGUUGGAGUCUCGCUGUGUCGCCCAGACUGGAGUGCAGUGGUGGGAUCGCGGCUCACUGCAACCUCC | 1.58 |
| AUGUUCUGCUGCGUCCCCACCGUGACCUGCCUGGCCUCCCCUGUCUCAGGGAGCAGGUCACAGGUCACCAUGGGGAAUUCUAGCCCCCACUGGGGGGAUGUUACAACACC | 0.301 |

Sample 2 — target: NFE2L2, bZIP domain (human); technique: DHFR protein complementation; sample: yeast; relative to: wild-type JUN-FOS pair; reading: higher = stronger binding
Notes: single substitutions, most at no-binding floor
Starting sequence: JUN, bZIP domain (human); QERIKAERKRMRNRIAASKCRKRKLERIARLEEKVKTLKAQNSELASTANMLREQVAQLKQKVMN; partner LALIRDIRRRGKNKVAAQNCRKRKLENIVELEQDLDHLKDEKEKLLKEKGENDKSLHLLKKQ
| Variant | binding fitness [natural log] |
| --- | --- |
| L52C | -1.57 |
| I28T | -1.44 |
| Q55T | -1.54 |
| L59G | -1.08 |
| E54W | -1.43 |
| T37H | -1.25 |
| E54I | -1.59 |
| L31I | -1.54 |
| A29K | -1.22 |
| E54K | -1.15 |
| M51E | -1.4 |
| E33H | -1.47 |
| A46V | -1.43 |
| A49C | -1.41 |

Sample 3 — target: CCND3, cyclin fold, Cln2 fusion (human); technique: yeast growth competition, sequencing; sample: yeast; notes: weak parent motif; relative to: not given; reading: higher = stronger binding
Starting sequence: MASTL docking peptide (human); PMIAKNLMCELDE
| Variant | normalised enrichment score |
| --- | --- |
| PMIAKNLMCENDE [L11N] | -0.0427 |
| PMIAKNLHCELDE [M8H] | -0.108 |
| PMIAKNYMCELDE [L7Y] | 0.0843 |
| PMIAVNLMCELDE [K5V] | 0.105 |
| PMIAKNLLCELDE [M8L] | -0.048 |
| PMIAKNLICELDE [M8I] | 0.131 |
| PMIAKNLMGELDE [C9G] | -0.0658 |
| PGIAKNLMCELDE [M2G] | 0.0477 |
| PRIAKNLMCELDE [M2R] | 0.106 |
| PMIAKNLMCELPE [D12P] | -0.142 |
| PMIFKNLMCELDE [A4F] | 0.0713 |
| PMIAKNLSCELDE [M8S] | -0.0436 |
| PMIAKNLMCMLDE [E10M] | -0.0113 |
| PMIAINLMCELDE [K5I] | 0.0582 |
| PMWAKNLMCELDE [I3W] | -0.193 |
| PMIAKNLNCELDE [M8N] | -0.125 |
| PCIAKNLMCELDE [M2C] | -0.0382 |
| PMIAKNLMFELDE [C9F] | -0.0436 |
| PMMAKNLMCELDE [I3M] | 0.0539 |

Sample 4 — technique: protein binding microarray; form: double-stranded DNA, one strand shown; sample: in vitro; tested at: not given; relative to: not given; reading: higher = stronger binding
Target: Histone acetyltransferase KAT6A, both winged helices, GST fusion (KAT6A, Homo sapiens, UniProt Q92794, residues 1-181)
Notes: 8-mer, flanks averaged, mean of 2 arrays, mostly near background
Target sequence (chain): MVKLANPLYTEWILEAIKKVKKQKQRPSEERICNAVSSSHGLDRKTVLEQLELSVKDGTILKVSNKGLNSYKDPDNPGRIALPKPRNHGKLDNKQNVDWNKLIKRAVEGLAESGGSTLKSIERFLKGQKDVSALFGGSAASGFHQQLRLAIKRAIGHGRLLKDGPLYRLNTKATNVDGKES
| Strand | E-score |
| --- | --- |
| CATAAATG | -0.0924 |
| AACCTGGA | -0.118 |
| GCCGGACA | 0.232 |
| ATCCCCTG | -0.259 |
| ATTCAATG | -0.0858 |
| ACTACCCC | -0.182 |
| ACGAAATG | -0.203 |
| CCTGCCCC | -0.179 |
| AGCGTCGG | 0.345 |
| AATAAAGT | -0.0774 |
| TCCCAAGA | -0.152 |
| CGGCGATC | 0.354 |
| AGGCGACT | -0.046 |
| CGTATCTA | 0.041 |
| ACCGTCGA | 0.0741 |
| GACCCTCA | -0.243 |

Sample 5 — technique: universal PBM; form: double-stranded DNA, one strand shown; sample: in vitro; tested at: not given; reading: higher = stronger binding
Target: Sal-like protein 4, full length isoform B (SALL4, Homo sapiens, UniProt Q9UJQ4-2, residues 1-616)
Notes: 8-mer, flanks averaged, mean of replicates
| Strand | E-score |
| --- | --- |
| AATGTGGA | 0.209 |
| CGGGCGAC | -0.361 |
| ATGAGGCG | -0.037 |
| AACCGTTA | 0.0723 |
| ACGTGAGA | 0.0936 |
| AAGGTCGT | 0.00841 |
| ACACAGCA | 0.162 |
| TTGCTAAA | 0.111 |
| AGATATCG | 0.0166 |
| CCTCTAAG | 0.0149 |
| TATGACAA | 0.325 |
| GGATACTA | 0.1 |
| GATTTGAC | -0.00584 |
| CGCTGTAG | -0.275 |
| GCAATCCC | -0.216 |
| AGGGGGTC | -0.23 |

Sample 6 — target: CEP164, C-terminal peptide (human); technique: DHFR complementation, deep sequencing; sample: yeast; relative to: wild type; reading: higher = weaker binding
Notes: single substitutions, model-inferred values
Starting sequence: PDZK1, PDZ domain 2 (human); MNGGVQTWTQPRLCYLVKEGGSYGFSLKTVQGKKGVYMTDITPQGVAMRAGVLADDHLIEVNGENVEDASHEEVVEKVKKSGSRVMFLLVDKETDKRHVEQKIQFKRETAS; partner HNRVKVYRF
| Variant | binding free energy change |
| --- | --- |
| V90A | -0.233 kcal/mol |
| E100R | -0.0652 kcal/mol |
| S70C | 0.00457 kcal/mol |
| D68K | -0.00524 kcal/mol |
| T42E | 0.0188 kcal/mol |
| V36Y | 1 kcal/mol |
| V61G | 1.51 kcal/mol |
| K18S | 0.244 kcal/mol |
| I59R | 0.803 kcal/mol |
| D56K | 1.17 kcal/mol |
| S83N | -0.131 kcal/mol |
| G3A | -0.0425 kcal/mol |
| E93C | -0.00159 kcal/mol |
| L16G | 1.46 kcal/mol |
| V74L | 0.822 kcal/mol |
| G32R | 0.553 kcal/mol |
| K18Q | 0.189 kcal/mol |

Sample 7 — technique: Spec-seq; form: double-stranded DNA, one strand shown; sample: in vitro; tested at: not given; notes: whole probe, mean of replicates; relative to: not given; reading: lower = stronger binding; constant ends, left off below: GAGTCGTCTCGTCAGCAC … CCGTAGAGCACTCAGGTC
Target: Transcription factor SOX-2, HMG box (Sox2, Mus musculus, UniProt P48432, residues 41-119)
Sequence of UniProt P48432 (41-119, looked up): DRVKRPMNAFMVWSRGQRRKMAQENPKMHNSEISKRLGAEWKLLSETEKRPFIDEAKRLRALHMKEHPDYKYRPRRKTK
| Strand | relative binding energy [ln ratio] |
| --- | --- |
| CATATGG | -0.104 |
| CATGTCG | 0.659 |
| TAGCGTT | 0.892 |
| GTGGGTT | 1.47 |
| GTAGGTT | 1.11 |
| CATGCTC | 0.473 |
| CATGGCT | 0.267 |
| ATCTGTT | -0.153 |
| CATTAAA | -0.539 |
| CGCGGTT | 1.21 |
| CGGCGTT | 1.64 |
| CATTGCG | -0.0972 |
| GTTGGTT | 1.16 |
| GCCGGTT | 1.43 |
| GCGTGTT | 1.2 |
| CATGTCT | 0.495 |
| CATTATA | -1.82 |
| CATATAC | -0.184 |
| TTTAGTT | -0.332 |
| CATCGTT | 0.304 |
| AATAGTT | -2.02 |
| CATACCA | 0.214 |
| TCATGTT | 0.252 |
| CATTTTG | -0.154 |
| CATGGCA | 0.148 |

Sample 8 — technique: DHFR PCA, deep sequencing; sample: yeast; added: (+)-ABA 4.8 µM; relative to: wild-type fitted maximum; reading: higher = stronger binding
Target: ABI1, truncated, D143A, DHFR fusion (Arabidopsis thaliana)
Notes: methotrexate growth selection, single substitutions
Starting sequence: PYL1, truncated, DHFR fusion (Arabidopsis thaliana); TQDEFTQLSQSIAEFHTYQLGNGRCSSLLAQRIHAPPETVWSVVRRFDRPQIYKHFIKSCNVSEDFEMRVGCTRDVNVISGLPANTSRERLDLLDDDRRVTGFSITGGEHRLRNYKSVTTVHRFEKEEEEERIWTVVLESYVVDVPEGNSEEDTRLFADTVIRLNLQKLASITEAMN; partner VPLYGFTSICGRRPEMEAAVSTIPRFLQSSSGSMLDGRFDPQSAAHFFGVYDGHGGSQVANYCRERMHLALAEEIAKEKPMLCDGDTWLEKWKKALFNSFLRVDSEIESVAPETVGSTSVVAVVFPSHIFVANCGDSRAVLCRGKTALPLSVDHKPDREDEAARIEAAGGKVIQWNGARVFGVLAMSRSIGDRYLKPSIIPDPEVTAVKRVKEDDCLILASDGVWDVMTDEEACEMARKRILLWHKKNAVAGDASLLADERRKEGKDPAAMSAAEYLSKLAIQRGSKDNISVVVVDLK
| Variant | relative binding score [%] |
| --- | --- |
| G81M | 10.3 |
| T101Q | 4.32 |
| A13K | 78.9 |
| V143S | -5.35 |
| E67L | 48.2 |
| L156Y | 52.2 |
| L28G | 2.08 |
| E38L | 1.98 |
| D97Q | 73.8 |
| E151Y | 52.5 |
| T135I | -5.71 |
| E130S | 83.3 |
| T73P | 0.0333 |
| R88A | 46.8 |
| R46Y | -2.23 |
| D75N | 73.4 |
| Q51W | 22.4 |
| S150L | 10.6 |

Excerpt of the above (sample 6):
| Variant | binding free energy change |
| --- | --- |
| K18S | 0.244 kcal/mol |
| D56K | 1.17 kcal/mol |
| V74L | 0.822 kcal/mol |
| G32R | 0.553 kcal/mol |
| L16G | 1.46 kcal/mol |
| T42E | 0.0188 kcal/mol |
| V36Y | 1 kcal/mol |
| E93C | -0.00159 kcal/mol |
| D68K | -0.00524 kcal/mol |
| E100R | -0.0652 kcal/mol |
| K18Q | 0.189 kcal/mol |
| S70C | 0.00457 kcal/mol |
| V61G | 1.51 kcal/mol |
| G3A | -0.0425 kcal/mol |
| V90A | -0.233 kcal/mol |
| S83N | -0.131 kcal/mol |
